{"data": "Results collected from several papers", "CYP3A4": "Cytochrome P450 3A4 (CYP3A4, Homo sapiens, UniProt P08684)", "note": "Each line is one published result; not all experiments were run side by side. Numbers after ± are the reported error.", "sequence of UniProt P08684 (whole entry, unmodified, looked up)": "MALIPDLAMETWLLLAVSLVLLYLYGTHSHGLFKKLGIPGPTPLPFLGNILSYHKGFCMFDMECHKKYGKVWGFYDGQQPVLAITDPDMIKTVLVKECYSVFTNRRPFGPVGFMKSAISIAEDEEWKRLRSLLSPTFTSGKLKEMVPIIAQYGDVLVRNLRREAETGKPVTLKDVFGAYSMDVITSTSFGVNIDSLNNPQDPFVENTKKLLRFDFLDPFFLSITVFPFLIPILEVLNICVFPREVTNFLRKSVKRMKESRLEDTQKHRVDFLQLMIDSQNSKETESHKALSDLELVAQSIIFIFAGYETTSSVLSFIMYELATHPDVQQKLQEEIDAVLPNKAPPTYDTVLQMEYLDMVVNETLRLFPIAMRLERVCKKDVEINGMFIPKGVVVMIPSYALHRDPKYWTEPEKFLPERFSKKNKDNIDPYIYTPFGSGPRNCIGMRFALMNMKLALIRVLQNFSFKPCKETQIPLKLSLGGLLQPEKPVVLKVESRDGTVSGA"}
{"Compound": "Cc1ncc2n1-c1ccc(Cl)cc1C(c1ccccc1F)=NC2", "target": "Cytochrome P450 3A4 (CYP3A4, Homo sapiens, UniProt P08684, C239T/C377A/C468S/C58A/C64M/C98A)", "assay": "ligand, stopped flow", "conditions": "40 µM, pH 7.4, Cys-less variant", "measurement": "kfast", "result": "0.15 ± 0.02 s⁻¹"}
{"Compound": "C=CC[C@]1(O)CC[C@H]2[C@@H]3CC[C@H]4CC(=O)CC[C@]4(C)[C@H]3CC[C@@]21C", "target": "CYP3A4", "assay": "enzyme activity, inhibitor", "measurement": "IC50", "result": "1 µM"}
{"Compound": "O=C(O)C(F)(OC(F)(F)C(F)(F)C(F)(F)F)C(F)(F)F (centres unmarked)", "target": "CYP3A4", "assay": "enzyme activity, inhibitor", "conditions": "Supersomes, added: 7-BFC substrate", "measurement": "IC50", "result": "> 100 µM"}
{"Compound": "OCCCCc1ccc2ccc3cccc4ccc1c2c34", "target": "Cytochrome P450 3A4 (CYP3A4, Homo sapiens, UniProt P08684, D214E/L211F)", "assay": "FRET titration by dilution", "conditions": "pH 7.4, L211F/D214E mutant, excess substrate, enzyme:substrate 1:6, added: HPCD 0.6 mg/mL", "measurement": "Kd", "result": "16.4 ± 16.5 µM"}
{"Compound": "C[C@]12CCC(=O)C[C@@H]1CC[C@@H]1[C@@H]2CC[C@@]2(C)[C@H]1CC[C@@]2(O)C/C=C/C[C@]1(O)CC[C@H]2[C@@H]3CC[C@H]4CC(=O)CC[C@]4(C)[C@H]3CC[C@@]21C", "target": "CYP3A4", "assay": "binding, absorbance", "conditions": "pH 7.4", "measurement": "Kd", "result": "9.6 µM"}
{"Compound": "CC[C@H](C)[C@@H]([C@@H](CC(=O)N1CCC[C@H]1[C@H](OC)[C@@H](C)C(=O)N[C@@H](Cc1ccccc1)c1nccs1)OC)N(C)C(=O)[C@@H](NC(=O)C(C)(C)N)C(C)C", "target": "CYP3A4", "system": "patients", "conditions": "added: fluconazole multiple dose", "how to read": "baseline: with over without fluconazole", "measurement": "Cmax ratio", "result": "102%"}
{"Compound": "COc1cc(/C=C/c2ccc(O)cc2)cc(OC)c1", "target": "CYP3A4", "assay": "enzyme activity, inhibitor", "system": "human, liver microsomes", "conditions": "100 µM, 10 min, pH 7.4, midazolam probe", "measurement": "inhibition", "result": "< 50%"}
{"Compound": "CC1=N[C@]2(C(=O)CO)[C@@H](C[C@H]3[C@@H]4C[C@@H](O)C5=CC(=O)C=C[C@]5(C)[C@H]4[C@@H](O)C[C@@]32C)O1", "target": "CYP3A4", "assay": "enzyme activity, inhibitor", "system": "pooled human liver microsomes", "conditions": "30 min preincubation with NADPH, added: midazolam substrate", "measurement": "IC50", "result": "> 50 µM"}
{"Compound": "C[C@]12CCC(=O)C=C1CC[C@@H]1[C@@H]2CC[C@@]2(C)[C@H]1CC[C@@]2(O)C/C=C/C[C@]1(O)CC[C@H]2[C@@H]3CCC4=CC(=O)CC[C@]4(C)[C@H]3CC[C@@]21C", "target": "CYP3A4", "assay": "enzyme activity, inhibitor", "measurement": "IC50", "result": "3 µM"}
{"Compound": "OCc1ncc2n1-c1ccc(Cl)cc1C(c1ccccc1F)=NC2", "target": "CYP3A4", "system": "human", "conditions": "75 mg once daily, day 1, added: midazolam 7.5 mg", "how to read": "baseline: compound over midazolam", "measurement": "AUC ratio", "result": 0.369}
{"Compound": "Cc1ncc2n1-c1ccc(Cl)cc1C(c1ccccc1F)=NC2", "target": "CYP3A4", "system": "healthy female humans, plasma", "conditions": "oral, dose not given, day 1, probe cocktail alone", "measurement": "half-life", "result": "5.2 ± 1.6 h"}
